Measured values gathered from unrelated publications.
Lines come from different studies, so protocols differ. Numbers after ± are the reported error.

CCCCCOc1ccc(-c2cc(-c3ccc(C(=O)N[C@H]4C[C@@H](O)[C@@H](O)NC(=O)[C@@H]5[C@@H](O)[C@@H](C)CN5C(=O)[C@H]([C@H](O)CC(N)=O)NC(=O)[C@H]([C@H](O)[C@@H](O)c5ccc(O)c(OS(=O)(=O)O)c5)NC(=O)[C@@H]5C[C@@H](O)CN5C(=O)[C@H]([C@@H](C)O)NC4=O)cc3)no2)cc1 — AUC(0-tau) (human paediatric patients 2 to 5 years, plasma; intravenous, 4.5 mg/kg once daily, day 7, mean): 249 µg·h/mL
CNC(=O)c1ccc(-c2cnn3ccc(C(=O)N(C)c4ccc(Cl)c(C(=O)OC)c4)cc23)cc1 — AUC(0-t) (neonatal calf, infected, with diarrhoea, plasma; oral, 10 mg/kg, 0 to 12 h): 0.147 µM·h
CSCC[C@@H]1NC(=O)[C@H](CC(=O)O)NC(=O)CNC(=O)[C@H](CCCNC(=N)N)NC(=O)[C@H](C)NC(=O)[C@H](CCC(=O)O)NC(=O)[C@H](CCCNC(=N)N)NC(=O)[C@@H]2CSSC[C@@H]3NC(=O)[C@H](CO)NC(=O)[C@H]([C@@H](C)O)NC(=O)[C@@H]4CCCN4C(=O)[C@H](C)NC(=O)[C@H](Cc4c[nH]c5ccccc45)NC(=O)[C@H](CC(=O)O)NC(=O)CNC(=O)[C@H](CCCNC(=N)N)NC(=O)CNC(=O)[C@H](CCC(N)=O)NC(=O)[C@@H]4CCCN4C(=O)[C@@H](NC(=O)CNC(=O)C(C)F)CSSC[C@H](NC(=O)CNC(=O)[C@H](C)NC(=O)[C@H](CC(C)C)NC(=O)[C@H](CSSC[C@@H](C(=O)NCC(N)=O)NC(=O)[C@H]([C@@H](C)O)NC(=O)[C@H](CCCNC(=N)N)NC(=O)[C@@H]4CCCN4C1=O)NC(=O)[C@H](CC(=O)O)NC(=O)[C@H](CO)NC(=O)[C@H](CC(=O)O)NC(=O)[C@H](CCC(N)=O)NC(=O)[C@H](CO)NC3=O)C(=O)N[C@@H](C(C)C)C(=O)N2 (stereo partly drawn) [fluorine-18 labelled] — tissue uptake (nude mice U-87 MG xenograft, spleen; intravenous, 1 h): 0.47 ± 0.04 %ID/g
CC(C)(NC(=O)c1nn(Cc2ccc(F)cc2)c2ccccc12)c1cccc(C(N)=O)c1 — half-life (C57BL/6 mouse, plasma; intraperitoneal, 2.5 mg/kg): 66 min
CC[C@H](C)[C@H](NC(=O)[C@@H](N)CCCNC(=N)N)C(=O)N[C@H](C(=O)N1CCC[C@H]1C(=O)N[C@@H](C)C(N)=O)C(C)C — Tmax (healthy volunteers, both sexes, plasma; intravenous infusion, 4.5 mg/kg daily, day 7, multiple ascending dose): 5 ± 1.1 min
Cc1ccc([C@H]2C[C@@H]2COc2cc(NCc3nnc(C)s3)nc(C)n2)nc1 — plasma concentration (rat (novel object recognition), plasma; oral, 0.25 mg/kg, 1 h): 29 nM
CN[C@@](C)(C[18F])C(=O)O — tissue uptake (SCID mouse MDA-MB-468 xenograft, muscle; 30 min, post injection): 1.2 ± 0.3 %ID/g
CCCCCCCCCCCC[N+](C)(C)C — hepatic clearance (in vitro-in vivo extrapolation; human): 0.114 mL/h/g liver
NC(=O)c1nc(F)c[nH]c1=O — solubility (UV-Vis spectrophotometry; supercritical CO2; 120 min, 308 K, 12 MPa, 768.42 kg/m^3): 146 µg/mL
CS(=O)(=O)CCCn1c(Cn2c(=O)n(CC(F)(F)F)c3ccncc32)cc2cc(Cl)ccc21 — patients with high MCH (RSV-infected infants; concentration not given, mid dose cohorts): 8%
CSc1ccc(Nc2ccc3c(c2)C(c2ccccc2F)=NC(C)C(=O)N3)cc1 (stereo not drawn) — solubility (shake flask; PBS; 24 h, pH 7.4): 3.69 µM
CNC[C@H](O)[C@@H](O)[C@H](O)[C@H](O)CO.CNC[C@H](O)[C@@H](O)[C@H](O)[C@H](O)CO.O=C([O-])CN(CCN(CC(=O)[O-])CC(=O)O)CCN(CC(=O)[O-])CC(=O)O.[Gd+3] — half-life (T1-weighted MRI, 9.4 T; nude mice, BT-20 breast cancer xenograft, tumour periphery; iv, 200 µmol/kg): 29.6 ± 2.4 min

For quick reference, copied from above:
CSc1ccc(Nc2ccc3c(c2)C(c2ccccc2F)=NC(C)C(=O)N3)cc1 (stereo not drawn) — solubility (shake flask; PBS; 24 h, pH 7.4): 3.69 µM
